Measurements collected from several papers.
Every numbered part comes from another study and shows a few of its results, in no order.

Study 1
Target: Interferon regulatory factor 7, full length, phosphomimetic (IRF7, Homo sapiens, UniProt Q92985, residues 1-503, S101K/S471D/S472D/S475D/S476D/S477D/S483D/S484D/S487D)
UniProt Q92985, sequence (whole entry, unmodified, looked up): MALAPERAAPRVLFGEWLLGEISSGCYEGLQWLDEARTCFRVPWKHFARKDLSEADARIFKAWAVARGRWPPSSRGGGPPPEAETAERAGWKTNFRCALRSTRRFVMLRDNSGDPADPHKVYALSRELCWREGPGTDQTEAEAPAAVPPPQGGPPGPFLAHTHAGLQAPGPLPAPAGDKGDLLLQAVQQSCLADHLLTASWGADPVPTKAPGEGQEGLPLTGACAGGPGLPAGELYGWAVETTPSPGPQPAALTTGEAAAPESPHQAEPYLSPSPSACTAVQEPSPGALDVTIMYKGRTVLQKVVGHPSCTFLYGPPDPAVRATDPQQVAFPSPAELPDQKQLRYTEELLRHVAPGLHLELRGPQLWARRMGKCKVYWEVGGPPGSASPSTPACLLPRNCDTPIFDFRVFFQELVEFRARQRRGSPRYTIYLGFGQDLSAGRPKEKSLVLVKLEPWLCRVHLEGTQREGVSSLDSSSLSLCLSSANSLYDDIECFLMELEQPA
Technique: protein-binding microarray
Molecule type: double-stranded DNA, one strand shown
Sample: in vitro
Tested at: 250 nM
Setting: 60-bp whole probe
With: salmon DNA 0.4 mg/ml
Baseline: random background probes
Direction: higher = stronger binding
Sequence | log fluorescence [z-score]
GCCTAGCACTTAGCTTTCGACACTGGGTTAGTGCTAGTCTTGATTCGCTTGACGCTGCTG | -0.0929
GCCTAGCACTGTACTCTCTACATGGGCTTGTGCTAGGTCTTGATTCGCTTGACGCTGCTG | 0.552
GCCTAGCACGACGTTTTCGGTCTCGGGACGTGCTAGGTCTTGATTCGCTTGACGCTGCTG | 2.49
GCCTAGCACGACGATCTCCGTCTCGAGACGTGCTAGGTCTTGATTCGCTTGACGCTGCTG | -0.11

Study 2
Target: PABPC1L2, full length, GST fusion (mouse, UniProt A0ABA7IW68)
Technique: RNAcompete
Molecule type: RNA
Sample: in vitro
Tested at: 20 nM
Setting: 7-mer, probes averaged, single round
Baseline: mean of 7-mers
Direction: higher = stronger binding
Target sequence (chain): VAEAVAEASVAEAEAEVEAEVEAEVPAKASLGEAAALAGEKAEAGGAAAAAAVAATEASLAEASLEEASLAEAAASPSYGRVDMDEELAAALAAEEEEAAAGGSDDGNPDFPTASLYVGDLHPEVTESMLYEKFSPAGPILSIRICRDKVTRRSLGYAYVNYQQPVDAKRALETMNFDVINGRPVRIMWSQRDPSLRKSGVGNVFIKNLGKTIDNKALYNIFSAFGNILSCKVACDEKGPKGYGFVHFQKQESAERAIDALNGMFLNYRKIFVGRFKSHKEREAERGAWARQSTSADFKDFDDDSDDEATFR
Sequence | 7-mer Z-score
GUUAAGG | -0.151
CGCACAC | -0.229
GGCAAGG | 0.361
GUCCUAU | -0.4

Study 3
Target: Prothrombin, mature alpha-thrombin (F2, Homo sapiens, UniProt P00734)
Technique: aptamer microarray, sandwich
Molecule type: DNA with 2'F-ANA
Sample: in vitro
Tested at: 200 nM
Setting: whole 15-mer aptamer, many near background
With: Cy3 exosite-II aptamer, 400 nM
Direction: higher = stronger binding
Sequence | mean fluorescence intensity
GGTTGGTGTGGTTGG (2'F-ANA at 3 6 9 13 15) | 800 a.u.
GGTTGGTGTGGTTGG (2'F-ANA at 2 3 5 7 8 10 11 12 13 15) | 57.7 a.u.
GGTTGGTGTGGTTGG (2'F-ANA at 1 2 3 4 10 12) | 78.8 a.u.
GGTTGGTGTGGTTGG (2'F-ANA at 1 2 3 8 12 14 15) | 135 a.u.

Mixed results
Substance | target | test | test system | setting | how to read | endpoint | value
PhoQ, residues 284 288 289 292 302 303 TTCLQL | PhoP, residues 12 14 15 18 19 SGWQI (Escherichia coli, UniProt P23836) | Sort-seq, refers to: YFP reporter | E. coli | PhoQ-PhoP variant library, with: 10 µM Mg2+ | baseline: high Mg2+ state, higher = stronger signaling | fold induction | 3.04

Excerpt of the above (study 1):
Sequence | log fluorescence [z-score]
GCCTAGCACGACGATCTCCGTCTCGAGACGTGCTAGGTCTTGATTCGCTTGACGCTGCTG | -0.11
